Experimental data of several laboratories.
± marks the error that the study gave.

SMILES | assay | system | setting | scale | AUC(0-inf)
O=c1[nH]c(=O)c(Cc2cccc(C(F)(F)F)c2)c([C@H]2CC[C@H](c3ccccc3)CC2)[nH]1 | – | human, fasted, plasma | oral, 1500 mg single dose, geometric mean | – | 9680 ng·h/mL
C[C@@H](c1nc(-c2ccc(C#N)cc2)cs1)[C@](O)(Cn1cncn1)c1cc(F)ccc1F | – | human, both sexes, plasma | oral, 200 mg single dose, together with: ketoconazole 200 mg BID | – | 466000 ng·h/mL
O=C(/C=C/c1cccc(S(=O)(=O)Nc2ccccc2)c1)NO | – | human mild liver dysfunction, plasma | intravenous, 400 mg/m^2, 30 min infusion, cycle 1 day -7 | – | 14300 ng·h/mL
CCn1c(C(=O)c2cc(C)cc(C#N)c2)c(C(C)C)c(=O)[nH]c1=O | – | healthy humans, plasma | oral, 75 to 600 mg single dose, range of dose-group means | – | 11100 to 33700 ng·h/mL
CCS(=O)(=O)N1CC(CC#N)(n2cc(-c3ncnc4[nH]ccc34)cn2)C1 | – | healthy Chinese human subjects, plasma | oral, 4 mg, single dose, mean | – | 274 ng·h/mL
CN(Cc1cnc2nc(N)nc(N)c2n1)c1ccc(C(=O)N[C@@H](CCC(=O)O)C(=O)O)cc1 | – | human, plasma | oral, 15 mg, alone, mean | – | 1600 ng·h/mL
CN[C@@H]1COc2c(S(=O)(=O)NC(=O)Nc3c4c(cc5c3CCC5)CCC4)cnn2C1 | – | human | oral, 600 mg, fasted, mean | – | 173000 ng·h/mL
CO[C@H]1C[C@@H]2CC[C@@H](C)[C@@](O)(O2)C(=O)C(=O)N2CCCC[C@H]2C(=O)O[C@H]([C@H](C)C[C@@H]2CC[C@@H](OCCO)[C@H](OC)C2)CC(=O)[C@H](C)/C=C(\C)[C@@H](O)[C@@H](OC)C(=O)[C@H](C)C[C@H](C)/C=C/C=C/C=C/1C | – | human, plasma | oral, 30 mg, together with: sunitinib 50 mg daily | – | 1750 ng·h/mL
CC(=O)O[C@H]1C(=O)[C@@]2(C)[C@H]([C@H](OC(=O)c3ccccc3)[C@]3(O)C[C@H](OC(=O)[C@H](O)[C@@H](NC(=O)c4ccccc4)c4ccccc4)C(C)=C1C3(C)C)[C@]1(OC(C)=O)CO[C@@H]1C[C@@H]2O | – | human patients on no protease inhibitor, plasma | iv, 100 mg/m^2 over 3 h, cycle 1 | – | 2.9 ± 0.7 µM·h
CN1CCc2nc(C(=O)N[C@@H]3C[C@@H](C(=O)N(C)C)CC[C@@H]3NC(=O)C(=O)Nc3ccc(Cl)cn3)sc2C1 | – | human, plasma | 60 mg, fed, together with: dronedarone | – | 1680 ng·h/mL
C/C=C1\NC(=O)[C@H]2CSSCC/C=C/[C@H](CC(=O)N[C@H](C(C)C)C(=O)N2)OC(=O)[C@H](C(C)C)NC1=O | – | human, plasma | i.v., 8 mg/m^2 | – | 2000 ± 1260 ng·h/mL
C=C(C)[C@@H]1CC[C@]2(NCCN3CCS(=O)(=O)CC3)CC[C@]3(C)[C@H](CC[C@@H]4[C@@]5(C)CC=C(C6=CC[C@@](CF)(C(=O)O)CC6)C(C)(C)[C@@H]5CC[C@]43C)[C@@H]12 | – | healthy human volunteers, plasma | oral, 200 mg, tablet, high-fat state, mean | – | 39100 ng·h/mL
COc1cc(Nc2c(C#N)cnc3cc(OCCCN4CCN(C)CC4)c(OC)cc23)c(Cl)cc1Cl | – | human, normal hepatic function (Child-Pugh), plasma | single dose, geometric mean, total drug | – | 864 ng·h/mL
CCCC[C@H](NC(C)=O)C(=O)N[C@H]1CCC(=O)NC[C@@H](C(=O)N[C@@H](Cc2c[nH]c3ccccc23)C(N)=O)NC(=O)[C@H](CCCNC(=N)N)NC(=O)[C@@H](Cc2ccccc2)NC(=O)[C@H](Cc2c[nH]cn2)NC1=O | – | healthy human volunteers, plasma | subcutaneous, 3.0 mg once daily, day 7 | – | 202 ng·h/mL
NS(=O)(=O)OC[C@@H]1C[C@@H](n2ccc3c(N[C@H]4CCc5ccccc54)ncnc32)C[C@@H]1O | – | human | intravenous, 20 mg/m^2 single dose, day 8, together with: itraconazole | – | 1130 ng·h/mL
Cc1ccc(NC(=O)c2ccc(CN3CCNCC3)cc2)cc1Nc1nccc(-c2cccnc2)n1 | – | human patients, plasma | oral, 400 mg/day of imatinib, day 14 of cycle 1, together with: IL-2 6 MIU/day days 10-14 | – | 37000 ng·h/mL
CCN1CCN(Cc2ccc(Nc3ncc(F)c(-c4cc(F)c5nc(C)n(C(C)C)c5c4)n3)nc2)CC1 | – | human patients, plasma | oral, 200 mg single, geometric mean | – | 3580 ng·h/mL
COCCCCn1c(C(=O)N(CC(C)C)[C@@H]2CNC[C@H](C(=O)N3CCOCC3)C2)nc2ccccc21 | – | human, non-elderly, plasma | oral, 80 mg, multiple doses, day 1, mean | – | 4220 ng·h/mL
O=C(/C=C/c1cccc(S(=O)(=O)Nc2ccccc2)c1)NO | – | human patients, plasma | intravenous, 1000 mg/m2, cycle 1 day 1 | – | 77.9 µM·h
CO[C@H]1C[C@@H]2CC[C@@H](C)[C@@](O)(O2)C(=O)C(=O)N2CCCC[C@H]2C(=O)O[C@H]([C@H](C)C[C@@H]2CC[C@@H](O)[C@H](OC)C2)CC(=O)[C@H](C)/C=C(\C)[C@@H](O)[C@@H](OC)C(=O)[C@H](C)C[C@H](C)/C=C/C=C/C=C/1C | – | human, whole blood | oral, 16 mg, without ketoconazole | – | 1460 ng·h/mL
CC(=O)O[C@H]1C(=O)[C@@]2(C)[C@H]([C@H](OC(=O)c3ccccc3)[C@]3(O)C[C@H](OC(=O)[C@H](O)[C@@H](NC(=O)c4ccccc4)c4ccccc4)C(C)=C1C3(C)C)[C@]1(OC(C)=O)CO[C@@H]1C[C@@H]2O | – | human, plasma | intravenous, 175 mg/m², cycle 1, together with: carboplatin, ritonavir | – | 50.2 µM·h
C=CC(=O)N1CCC([C@@H]2CCNc3c(C(N)=O)c(-c4ccc(Oc5ccccc5)cc4)nn32)CC1 | – | human | oral, 160 mg, single dose, mean | – | 1230 ng·h/mL

SMILES | assay | system | setting | scale | AUC(0-inf)
NCCCS(=O)(=O)O | – | human, plasma | oral, 100 mg modified-release tablet, single dose | – | 2040 ± 712 ng·h/mL
C=CC(=O)Nc1cc(Nc2ncc(C(=O)OC(C)C)c(-c3cn(C)c4ccccc34)n2)c(OC)cc1N(C)CCN(C)C | – | human, fasted | oral, 160 mg single dose, geometric mean | – | 1020 ng·h/mL
Cc1ccc(NC(=O)c2ccc(CN3CCN(C)CC3)cc2)cc1Nc1nccc(-c2cncc(-c3oncc3C)c2)n1 | – | older healthy human adults, plasma | oral, 75.0 mg single dose, fed, mean | – | 60100 ng·h/mL
CCOC(=O)C1=C[C@@H](OC(CC)CC)[C@H](NC(C)=O)[C@@H](N)C1 | – | healthy Indian human, plasma | oral, 75 mg single, test capsule fed | – | 155 ± 32 ng·h/mL
CC(C)NC[C@@H](C(=O)N1CCN(c2ncnc3c2[C@H](C)C[C@H]3O)CC1)c1ccc(Cl)cc1 | – | human, matched normal hepatic function (Child-Pugh), plasma | oral, 100 mg single, reference geometric mean, vs Mild | – | 360 ng·h/mL
CCOc1cc([C@@H](CS(C)(=O)=O)N2C(=O)c3cccc(NC(C)=O)c3C2=O)ccc1O[C@@H]1O[C@H](C(=O)O)[C@@H](O)[C@H](O)[C@H]1O | – | healthy human controls, plasma | oral, 30 mg apremilast, matched to severe impairment | – | 4820 ng·h/mL
COC(=O)c1ccc2c(c1)NC(=O)/C2=C(\Nc1ccc(N(C)C(=O)CN2CCN(C)CC2)cc1)c1ccccc1 | – | human, Child-Pugh A hepatic impairment, plasma | oral, 100 mg, single dose, fed | adjusted geometric mean | 200 ng·h/mL
CC(C)C[C@H](NC(=O)[C@H](CCc1ccccc1)NC(=O)CN1CCOCC1)C(=O)N[C@@H](Cc1ccccc1)C(=O)N[C@@H](CC(C)C)C(=O)[C@@]1(C)CO1 | – | human patients, plasma | intravenous infusion 10 min, 27 mg/m^2, day 16 of cycle 1, KRd regimen | – | 445 ± 55.7 ng·h/mL
CC#CC(=O)NCCCC(=O)c1nc(-c2ccc(C(=O)Nc3ccccn3)cc2)c2c(N)nccn12 | – | human, severe hepatic impairment, plasma | oral, 50 mg acalabrutinib, single, geometric mean | – | 782 ng·h/mL
Cc1ccc(C(=O)NC2CC2)cc1-n1ncc(C(=O)c2cccc(C#N)c2)c1N | – | healthy human | oral, dose not given, geometric mean, together with: itraconazole 200 mg daily days 1-14 | – | 6890 ng·h/mL
COc1cc2ncnc(Nc3ccc(F)c(Cl)c3)c2cc1OCCCN1CCOCC1 | – | human, plasma | oral, 250 mg, together with: vorinostat 300 mg | – | 7.33 ± 1.81 ng·h/mL
CCOc1cc([C@@H](CS(C)(=O)=O)N2C(=O)c3cccc(NC(C)=O)c3C2=O)ccc1OC | – | healthy human, both sexes, plasma | oral, 30 mg single dose, together with: rifampicin multiple oral doses | – | 869 ng·h/mL
CC(=O)N1CCN(c2ccc(OCC3COC(Cn4ccnc4)(c4ccc(Cl)cc4Cl)O3)cc2)CC1 (centres unmarked) | – | healthy male human | oral, 200 mg, single dose alone | – | 10300 ng·h/mL
C=C[C@@H]1C[C@]1(NC(=O)[C@@H]1C[C@@H]2CN1C(=O)[C@H](C(C)(C)C)NC(=O)O[C@@H]1C[C@H]1CCCCCc1nc3ccc(OC)cc3nc1O2)C(=O)NS(=O)(=O)C1CC1 | – | healthy adult humans, plasma | oral, 100 mg, fixed-dose combination with elbasvir 50 mg, fasted | – | 0.573 µM·h
CC(=O)C[C@@H](c1ccccc1)c1c(O)c2ccccc2oc1=O | – | human | 200 mg | – | 48100 ± 19700 ng·h/mL
CCOCCn1c(C2CCN(CCc3ccc(C(C)(C)C(=O)O)cc3)CC2)nc2ccccc21 | – | human, moderate renal insufficiency, plasma | oral, 20 mg, geometric LS mean | – | 1360 ng·h/mL
C/C(=C\c1csc(C)n1)[C@@H]1C[C@@H]2O[C@]2(C)CCC[C@H](C)[C@H](O)[C@@H](C)C(=O)C(C)(C)[C@@H](O)CC(=O)N1 | LC-MS/MS | human, plasma | intravenous infusion, 70 mg, 3 h infusion | – | 2490 ng·h/mL
CCCCc1nc2cc(/C=C/C(=O)NO)ccc2n1CCN(CC)CC | LC-MS/MS | human, plasma | oral, 40 mg, day 1 | – | 434 ± 191 ng·h/mL
CCCS(=O)(=O)N[C@H]1C[C@@H](N(C)c2ncnc3[nH]ccc23)C1 | – | humans, normal hepatic function | oral, 200 mg single | – | 5590 ng·h/mL
COc1ccc(C[C@@H](C)[C@@H](C)Cc2ccc(OC)c(OC)c2)cc1OC | – | human patients, fasted | oral, 3600 mg, cycle 1 day 1 | – | 2600 ± 2300 ng·h/mL
Cc1cc(C)c2c(c1)[C@@H](N(Cc1cc(C(F)(F)F)cc(C(F)(F)F)c1)c1nnn(C)n1)CCCN2C[C@H]1CC[C@H](C(=O)O)CC1 | – | healthy humans, plasma | oral, 100 mg, geometric mean, together with: ketoconazole 400 mg | – | 12100 ng·h/mL
CCc1nc(C(N)=O)c(Nc2ccc(N3CCC(N4CCN(C)CC4)CC3)c(OC)c2)nc1NC1CCOCC1 | – | human, moderate hepatic impairment, plasma | oral, 10 mg, single dose, fasted, geometric LS mean | – | 337 ng·h/mL
